Assay results collected from several papers.
Every numbered part comes from another study and shows a few of its results, in no order. Substitutions count along the parent as printed.

Block 1
Target: RNA binding protein fox-1 homolog 2, RRM domain, GST-SBP tag (RBFOX2, Homo sapiens, UniProt O43251-10, residues 100-194)
Technique: RNA Bind-n-Seq
Molecule type: RNA
Sample: in vitro
Concentration: 365 nM
Notes: natural RNA segment, single round, ends assumed
Relative to: no-protein control
Reading: higher = stronger binding
Shared flanks, not repeated: GGGAGUUCUACAGUCCGACGAUC … UGGAAUUCUCGGGUGCCAA
Target sequence (chain): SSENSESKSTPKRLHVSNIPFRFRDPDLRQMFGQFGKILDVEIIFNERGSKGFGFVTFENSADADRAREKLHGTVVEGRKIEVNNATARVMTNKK
| Sequence | RBNS enrichment (R) |
| --- | --- |
| CUGGUUUCAUUUGCUUCCCUGCCGGGUUUAUUGUGUGUACCCCAUUUGUACUCCCAAUAACCUGAAGAUUCCAUGUAACUCUUAUGUACGCGCAUGAAUACUUUAAAUGC | 7.21 |
| UCCCUUCCCUUUGCACAUAUUUUUUCCUCCCCUUAUUGAAGUCAGCUCUAACCCCAAAUUCUAGUAUCCAAAAGUAUUUUUAUUUGUAUAAUGCUAUCUGAAAAAUGUGU | 0.578 |
| UCAUCGUCCUUGUACUGCGCUUCUGUUUACAAACGAUUCACUGAACAGACUUAACUUGAUGAUGGAAAUGAUGAAAAACAGGCCUAAUGUAGGUGUAAAAGUGUAUUCAA | 0.268 |
| UUUGUGGACUCAGUCAAGCAACCACAGUCUGUUAAUCAUUUCUCUAUGCUCAGAUGUCAGAUCCUCUUGUUAUUAGUGUGUCUUGUUCUGCACAGUGCAGGAGACUUUAU | 0.583 |
| AUUGCCUGCCUCUGCUGUGAAUUAACUUGUUCUGUGUAUUAAACUGGGCCUGACCCCUCUGCCCACGCUGCCUCGUUCUCCCGUCUGGUUUGGGGCAUCACCAAGAAGGA | 1.42 |
| GGCUCCUCCUGGGGAGGACUUUUGUCACUCUUCAGCCAAGAAGCAGCUCUGUGCACCUGUGUGUGAUACCUCACACUCGUGCUUUGUCCUCCACUGUCUAUGUAGGUUGU | 0.303 |

Block 2
Target: CCNA1, cyclin fold, Cln2 fusion (human)
Technique: yeast growth competition, sequencing
Sample: yeast
Notes: weak parent motif
Relative to: not given
Reading: higher = stronger binding
Starting sequence: INSM1 docking peptide (human); PKAIRKLHFEDEV; partner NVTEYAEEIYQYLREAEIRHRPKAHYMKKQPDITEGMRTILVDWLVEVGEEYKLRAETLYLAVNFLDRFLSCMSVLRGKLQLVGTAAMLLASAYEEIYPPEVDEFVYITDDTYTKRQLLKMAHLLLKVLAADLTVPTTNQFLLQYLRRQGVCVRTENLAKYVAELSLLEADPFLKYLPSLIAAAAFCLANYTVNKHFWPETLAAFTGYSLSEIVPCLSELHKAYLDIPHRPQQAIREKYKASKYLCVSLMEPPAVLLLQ
| Change | normalised enrichment score |
| --- | --- |
| E12K | 0.696 |
| E12C | 1.1 |
| F9Y | 0.307 |
| R5S | 0.183 |
| R5V | -0.0884 |

Block 3
Target: Sal-like protein 4, full length isoform B (SALL4, Homo sapiens, UniProt Q9UJQ4-2, residues 1-616)
Technique: universal PBM
Molecule type: double-stranded DNA, one strand shown
Sample: in vitro
Concentration: not given
Notes: 8-mer, flanks averaged, mean of replicates
Reading: higher = stronger binding
Construct (chain): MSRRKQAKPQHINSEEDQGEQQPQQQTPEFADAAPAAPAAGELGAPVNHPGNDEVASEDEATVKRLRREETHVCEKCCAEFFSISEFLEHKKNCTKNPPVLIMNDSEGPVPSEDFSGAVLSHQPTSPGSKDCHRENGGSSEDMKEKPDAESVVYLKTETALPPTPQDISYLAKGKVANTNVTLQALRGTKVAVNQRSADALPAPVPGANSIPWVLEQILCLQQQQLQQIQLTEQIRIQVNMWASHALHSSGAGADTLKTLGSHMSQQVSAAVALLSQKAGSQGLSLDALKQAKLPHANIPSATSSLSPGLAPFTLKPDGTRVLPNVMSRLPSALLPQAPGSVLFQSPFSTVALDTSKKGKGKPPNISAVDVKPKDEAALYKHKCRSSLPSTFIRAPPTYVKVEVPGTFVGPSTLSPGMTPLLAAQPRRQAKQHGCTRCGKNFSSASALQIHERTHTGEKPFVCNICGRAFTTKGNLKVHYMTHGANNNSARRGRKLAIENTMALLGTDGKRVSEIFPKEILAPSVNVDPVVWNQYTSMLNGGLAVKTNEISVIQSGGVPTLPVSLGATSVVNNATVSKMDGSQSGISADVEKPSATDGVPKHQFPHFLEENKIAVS
| Sequence | E-score |
| --- | --- |
| AAGTATCT | 0.14 |
| ATAGGGAC | -0.0497 |
| AGATACAC | 0.0666 |
| CACGCGGC | -0.236 |

Further values, each from its own experiment
| Substance | target | test | system | setting | how to read | quantity | result |
| --- | --- | --- | --- | --- | --- | --- | --- |
| PhoQ, residues 284 288 289 292 302 303 AGHLVA | PhoP, residues 12 14 15 18 19 LWHVM (Escherichia coli, UniProt P23836) | Sort-seq, measured: YFP reporter | E. coli | PhoQ-PhoP variant library, together with: 10 µM Mg2+ | relative to: high Mg2+ state, higher = stronger signaling | fold induction | 3.71 |

Repeated from above (block 3):
| Sequence | E-score |
| --- | --- |
| CACGCGGC | -0.236 |
| AGATACAC | 0.0666 |
